Measurements collected from several papers.
Every numbered part comes from another study and shows a few of its results, in no order. Several values in a cell are separate wells, animals, samples, runs or records.
Sequence of UniProt P53355 (whole entry, looked up): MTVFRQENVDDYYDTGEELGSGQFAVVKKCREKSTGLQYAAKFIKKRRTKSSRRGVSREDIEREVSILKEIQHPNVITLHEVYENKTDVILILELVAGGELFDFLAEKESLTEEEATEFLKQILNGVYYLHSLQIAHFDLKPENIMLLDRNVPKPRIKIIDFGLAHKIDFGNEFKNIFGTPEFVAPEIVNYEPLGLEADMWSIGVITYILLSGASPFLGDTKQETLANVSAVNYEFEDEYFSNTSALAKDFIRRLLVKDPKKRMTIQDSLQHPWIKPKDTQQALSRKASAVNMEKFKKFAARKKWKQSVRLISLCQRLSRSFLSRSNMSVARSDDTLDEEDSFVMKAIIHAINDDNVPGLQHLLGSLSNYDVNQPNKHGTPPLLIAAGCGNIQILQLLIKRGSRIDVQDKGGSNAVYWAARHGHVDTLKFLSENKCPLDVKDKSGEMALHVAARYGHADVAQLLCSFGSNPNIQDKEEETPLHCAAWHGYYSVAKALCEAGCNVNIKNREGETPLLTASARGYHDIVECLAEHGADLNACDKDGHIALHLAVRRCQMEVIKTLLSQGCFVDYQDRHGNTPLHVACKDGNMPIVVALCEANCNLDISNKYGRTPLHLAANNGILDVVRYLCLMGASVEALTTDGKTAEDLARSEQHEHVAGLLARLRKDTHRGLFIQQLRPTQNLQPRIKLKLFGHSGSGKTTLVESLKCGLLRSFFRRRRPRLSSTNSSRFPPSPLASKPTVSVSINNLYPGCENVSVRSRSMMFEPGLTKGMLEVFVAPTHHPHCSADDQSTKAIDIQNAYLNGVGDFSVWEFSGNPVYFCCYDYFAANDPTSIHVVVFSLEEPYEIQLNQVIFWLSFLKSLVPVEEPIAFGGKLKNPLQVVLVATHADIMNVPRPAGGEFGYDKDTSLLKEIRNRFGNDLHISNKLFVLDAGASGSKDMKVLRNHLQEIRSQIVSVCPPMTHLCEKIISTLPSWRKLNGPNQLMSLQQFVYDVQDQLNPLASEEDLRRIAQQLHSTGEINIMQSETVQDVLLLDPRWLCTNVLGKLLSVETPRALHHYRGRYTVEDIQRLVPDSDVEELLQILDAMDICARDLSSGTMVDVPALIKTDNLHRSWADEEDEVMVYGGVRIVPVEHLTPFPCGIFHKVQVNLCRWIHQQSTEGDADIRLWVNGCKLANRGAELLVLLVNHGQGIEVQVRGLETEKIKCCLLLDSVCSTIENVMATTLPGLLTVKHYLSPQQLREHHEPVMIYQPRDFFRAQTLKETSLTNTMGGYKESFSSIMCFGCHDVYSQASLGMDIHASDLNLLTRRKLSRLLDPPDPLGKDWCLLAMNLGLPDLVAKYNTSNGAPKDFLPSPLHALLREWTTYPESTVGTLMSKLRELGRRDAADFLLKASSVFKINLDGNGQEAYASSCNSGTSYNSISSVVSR
Sequence of UniProt O95835 (whole entry, looked up): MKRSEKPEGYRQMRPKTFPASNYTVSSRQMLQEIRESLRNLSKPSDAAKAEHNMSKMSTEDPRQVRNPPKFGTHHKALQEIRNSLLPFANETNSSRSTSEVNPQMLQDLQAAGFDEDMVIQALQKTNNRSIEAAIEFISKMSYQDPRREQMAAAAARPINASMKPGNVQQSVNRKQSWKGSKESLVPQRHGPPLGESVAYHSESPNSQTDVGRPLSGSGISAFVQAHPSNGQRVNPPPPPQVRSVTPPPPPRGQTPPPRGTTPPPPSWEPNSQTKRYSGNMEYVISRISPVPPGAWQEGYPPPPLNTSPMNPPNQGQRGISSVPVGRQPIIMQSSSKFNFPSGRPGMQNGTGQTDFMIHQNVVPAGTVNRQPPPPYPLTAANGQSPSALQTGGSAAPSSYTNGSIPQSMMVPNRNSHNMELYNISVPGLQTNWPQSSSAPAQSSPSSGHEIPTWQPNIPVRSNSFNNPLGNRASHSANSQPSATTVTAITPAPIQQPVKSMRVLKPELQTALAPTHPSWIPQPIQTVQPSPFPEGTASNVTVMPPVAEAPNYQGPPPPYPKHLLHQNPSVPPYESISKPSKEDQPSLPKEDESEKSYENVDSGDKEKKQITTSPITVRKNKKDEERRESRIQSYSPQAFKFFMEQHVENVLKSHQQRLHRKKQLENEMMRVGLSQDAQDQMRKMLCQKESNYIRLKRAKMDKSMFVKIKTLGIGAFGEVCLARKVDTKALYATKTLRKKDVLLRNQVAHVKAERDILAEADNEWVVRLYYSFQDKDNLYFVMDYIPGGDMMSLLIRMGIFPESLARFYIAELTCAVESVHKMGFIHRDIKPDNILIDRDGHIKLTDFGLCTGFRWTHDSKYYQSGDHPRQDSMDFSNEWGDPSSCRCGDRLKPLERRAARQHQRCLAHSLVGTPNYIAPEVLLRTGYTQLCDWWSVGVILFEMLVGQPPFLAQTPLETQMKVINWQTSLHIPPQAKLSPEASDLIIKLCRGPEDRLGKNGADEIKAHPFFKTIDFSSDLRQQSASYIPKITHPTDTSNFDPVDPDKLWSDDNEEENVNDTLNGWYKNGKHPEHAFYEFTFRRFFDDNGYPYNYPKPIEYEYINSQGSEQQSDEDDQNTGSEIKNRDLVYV
Sequence of UniProt P09619 (whole entry, looked up): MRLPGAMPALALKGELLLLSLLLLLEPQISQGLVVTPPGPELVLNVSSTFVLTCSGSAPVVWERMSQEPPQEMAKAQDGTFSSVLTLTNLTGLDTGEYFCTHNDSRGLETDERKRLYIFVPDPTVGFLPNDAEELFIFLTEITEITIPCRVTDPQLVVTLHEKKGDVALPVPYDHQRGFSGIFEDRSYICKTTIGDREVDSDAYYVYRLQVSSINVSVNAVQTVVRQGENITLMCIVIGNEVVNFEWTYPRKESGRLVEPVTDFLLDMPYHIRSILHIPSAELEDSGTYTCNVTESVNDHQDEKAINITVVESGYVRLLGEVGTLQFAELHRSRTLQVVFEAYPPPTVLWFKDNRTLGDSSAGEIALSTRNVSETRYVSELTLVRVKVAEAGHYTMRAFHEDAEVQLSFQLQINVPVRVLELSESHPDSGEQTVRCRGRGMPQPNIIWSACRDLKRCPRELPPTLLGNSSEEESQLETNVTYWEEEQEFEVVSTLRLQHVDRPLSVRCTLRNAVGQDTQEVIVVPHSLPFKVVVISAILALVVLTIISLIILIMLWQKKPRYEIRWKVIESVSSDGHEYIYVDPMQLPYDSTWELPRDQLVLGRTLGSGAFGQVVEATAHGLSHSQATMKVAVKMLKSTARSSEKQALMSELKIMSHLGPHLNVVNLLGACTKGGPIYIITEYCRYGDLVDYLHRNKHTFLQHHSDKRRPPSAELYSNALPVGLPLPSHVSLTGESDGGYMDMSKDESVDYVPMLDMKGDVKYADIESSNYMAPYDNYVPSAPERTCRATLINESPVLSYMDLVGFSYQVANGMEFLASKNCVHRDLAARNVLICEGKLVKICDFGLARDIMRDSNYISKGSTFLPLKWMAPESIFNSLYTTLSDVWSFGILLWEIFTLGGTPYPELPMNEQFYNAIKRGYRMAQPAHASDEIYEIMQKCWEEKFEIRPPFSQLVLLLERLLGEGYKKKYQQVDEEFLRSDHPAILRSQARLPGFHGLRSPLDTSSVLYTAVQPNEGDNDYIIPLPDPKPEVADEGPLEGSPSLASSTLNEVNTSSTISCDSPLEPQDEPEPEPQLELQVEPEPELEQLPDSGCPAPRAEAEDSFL
Sequence of UniProt O15197 (whole entry, looked up): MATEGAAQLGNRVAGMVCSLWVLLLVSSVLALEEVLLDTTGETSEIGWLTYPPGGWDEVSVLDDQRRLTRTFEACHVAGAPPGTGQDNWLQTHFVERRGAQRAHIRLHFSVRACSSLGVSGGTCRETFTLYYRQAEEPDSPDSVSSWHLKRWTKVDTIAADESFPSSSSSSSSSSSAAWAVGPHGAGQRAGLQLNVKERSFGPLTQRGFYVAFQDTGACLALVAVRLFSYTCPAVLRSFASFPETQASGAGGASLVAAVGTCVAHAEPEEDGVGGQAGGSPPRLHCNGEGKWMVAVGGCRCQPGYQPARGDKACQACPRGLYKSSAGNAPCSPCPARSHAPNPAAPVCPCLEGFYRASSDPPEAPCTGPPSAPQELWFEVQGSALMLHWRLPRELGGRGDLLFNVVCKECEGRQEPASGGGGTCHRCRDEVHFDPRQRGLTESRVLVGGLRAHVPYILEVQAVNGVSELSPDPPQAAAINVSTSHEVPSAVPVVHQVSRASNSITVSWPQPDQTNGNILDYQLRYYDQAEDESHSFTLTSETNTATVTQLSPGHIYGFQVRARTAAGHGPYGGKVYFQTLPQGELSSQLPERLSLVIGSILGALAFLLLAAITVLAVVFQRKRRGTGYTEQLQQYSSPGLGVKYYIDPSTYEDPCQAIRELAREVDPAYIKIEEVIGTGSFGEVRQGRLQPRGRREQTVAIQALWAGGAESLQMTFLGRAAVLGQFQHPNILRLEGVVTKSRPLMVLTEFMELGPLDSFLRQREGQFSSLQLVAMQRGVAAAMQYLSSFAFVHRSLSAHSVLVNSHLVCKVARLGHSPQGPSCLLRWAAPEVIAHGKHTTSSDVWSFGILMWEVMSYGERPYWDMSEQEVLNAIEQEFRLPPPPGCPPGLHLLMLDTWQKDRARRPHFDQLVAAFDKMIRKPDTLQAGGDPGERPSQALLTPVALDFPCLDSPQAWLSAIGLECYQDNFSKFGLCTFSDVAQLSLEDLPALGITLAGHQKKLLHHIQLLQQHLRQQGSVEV

Set 1 — effect on: enzyme activity; concentration: 5 µM; relative to: untreated control; endpoint: remaining activity
Structure (SMILES): O=C(Nc1cnn(-c2csc(C(=O)NC3COC3)c2)c1)Nc1ccccc1Cl
target = Cyclin-dependent kinase 16, with cyclin Y (CDK16, Homo sapiens, UniProt Q00536); result = 93.2%
target = Platelet-derived growth factor receptor beta (PDGFRB, Homo sapiens, UniProt P09619); result = 98.5%
target = Serine/threonine-protein kinase 10 (STK10, Homo sapiens, UniProt O94804); result = 87%

Set 2 — effect on: cell-free assay; technique: competition with immobilised ligand; concentration: 1 µM; endpoint: remaining binding
Compound: CN(C(=O)c1ccccc1)c1cc(N(C)c2ccc3c(c2)CCc2ccc(C(=O)NCCN4CCOCC4)cc2C3=O)ccc1F
target = Membrane-associated tyrosine- and threonine-specific cdc2-inhibitory kinase (PKMYT1, Homo sapiens, UniProt Q99640); result = 87%
target = Glycogen synthase kinase-3 alpha (GSK3A, Homo sapiens, UniProt P49840); result = 77%
target = Death-associated protein kinase 1 (DAPK1, Homo sapiens, UniProt P53355); result = 100%
target = Receptor-type tyrosine-protein kinase FLT3 (FLT3, Homo sapiens, UniProt P36888, N841I); result = 80%
target = Leucine-rich repeat serine/threonine-protein kinase 2 (LRRK2, Homo sapiens, UniProt Q5S007, G2019S); result = 86%
target = Serine/threonine-protein kinase LATS1 (LATS1, Homo sapiens, UniProt O95835); result = 99%
target = Mitogen-activated protein kinase 4 (MAPK4, Homo sapiens, UniProt P31152); result = 100%
target = cAMP-dependent protein kinase catalytic subunit alpha (PRKACA, Homo sapiens, UniProt P17612); result = 100%
target = Cyclin-dependent kinase 5 (CDK5, Homo sapiens, UniProt Q00535); result = 95%
target = Ephrin type-B receptor 6 (EPHB6, Homo sapiens, UniProt O15197); result = 100%

Set 3 — effect on: enzyme activity; mode: inhibitor; concentration: 0.5 µM; relative to: control; endpoint: remaining activity
Target: MAP kinase-activated protein kinase 3 (MAPKAPK3, Homo sapiens, UniProt Q16644)
Sequence of UniProt Q16644 (whole entry, looked up): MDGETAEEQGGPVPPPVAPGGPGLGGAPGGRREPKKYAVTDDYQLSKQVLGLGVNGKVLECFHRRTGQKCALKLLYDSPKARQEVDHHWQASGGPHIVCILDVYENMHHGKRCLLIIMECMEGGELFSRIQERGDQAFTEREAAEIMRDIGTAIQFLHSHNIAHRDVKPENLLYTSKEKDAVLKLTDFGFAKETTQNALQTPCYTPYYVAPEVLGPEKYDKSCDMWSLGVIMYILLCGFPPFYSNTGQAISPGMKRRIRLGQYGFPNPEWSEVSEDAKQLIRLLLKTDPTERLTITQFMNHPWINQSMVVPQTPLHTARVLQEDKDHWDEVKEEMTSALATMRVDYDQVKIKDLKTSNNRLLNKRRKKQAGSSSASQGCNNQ
SMILES = CO[C@H]1C[C@@H]2CC[C@@H](C)[C@@](O)(O2)C(=O)C(=O)N2CCCC[C@H]2C(=O)O[C@H]([C@H](C)C[C@@H]2CC[C@@H](O)[C@H](OC)C2)CC(=O)[C@H](C)/C=C(\C)[C@@H](O)[C@@H](OC)C(=O)[C@H](C)C[C@H](C)/C=C/C=C/C=C/1C; result = 90.9%
SMILES = Cc1ccc(Nc2nccc(N(C)c3ccc4c(C)n(C)nc4c3)n2)cc1S(N)(=O)=O; result = 98.5%
SMILES = COc1cc2ncnc(Nc3ccc(Oc4ccccc4)cc3)c2cc1OC; result = 99%
SMILES = COc1cc2ncnc(Nc3ccc(F)c(Cl)c3)c2cc1OCCCN1CCOCC1; result = 99.6%
SMILES = CN(C)c1ccc(C=C2C(=O)Nc3ccccc32)cc1; result = 100%
SMILES = O=S(=O)(c1cccc2cnccc12)N1CCCNCC1; result = 99.7%
SMILES = Cc1cccc(-c2[nH]c(C(C)(C)C)nc2-c2ccc3c(c2)OCO3)n1; result = 94.1%
SMILES = Cc1nc(-c2ccccc2)c(-c2ccncc2)o1; result = 94.7%
SMILES = O=C(CCCc1ccc(-c2ccccc2F)cc1)Nc1ccc(O)cc1; result = 91%
SMILES = O=c1c2ccccc2[nH]c(=S)n1CCN1CCC(=C(c2ccc(F)cc2)c2ccc(F)cc2)CC1; result = 109%
SMILES = COc1cc2nccc(Oc3ccc(NC(=S)NC(=O)c4ccccc4C)cc3)c2cc1OC; result = 102%
SMILES = COc1ccc(OC)c2c(=S)c3ccccc3[nH]c12; result = 87.7%
SMILES = CNC(=O)c1cc(Oc2ccc(NC(=O)Nc3ccc(Cl)c(C(F)(F)F)c3)cc2)ccn1; result = 100%
SMILES = NCCNc1ncc(C(N)=O)c(Nc2cccc(C(F)(F)F)c2)n1; result = 88.9%
SMILES = Cc1ccc(NC(=O)c2ccc(CN3CCN(C)CC3)cc2)cc1Nc1nc(-c2cccnc2)cs1; result = 97.9%
SMILES = COc1ccc(CNC(=O)Nc2ncc([N+](=O)[O-])s2)cc1; result = 103%

Set 4 — technique: Incucyte 3D growth; concentration: 30 µM; direction: higher = more growth; endpoint: spheroid area
Structure (SMILES): CC(C)(C(=O)O)[C@H](NC(=O)Cc1cccc(I)c1)c1ccc2oc(=O)[nH]c2c1
cell line = MEL-JUSO; time = 246.52 h; result = 1.89e+07 a.u. and 2.25e+07 a.u. and 2.07e+07 a.u. and 1.54e+07 a.u. and 1.72e+07 a.u. and 3.47e+07 a.u.
cell line = KP-4; time = 90 h; result = 1.87e+07 a.u. and 1.69e+07 a.u. and 1.52e+07 a.u. and 1.56e+07 a.u. and 1.71e+07 a.u. and 1.59e+07 a.u.
cell line = IPC-298; time = 144 h; result = 2.56e+07 a.u. and 3.41e+07 a.u. and 2.9e+07 a.u. and 2.3e+07 a.u. and 3.37e+07 a.u. and 2.82e+07 a.u.
cell line = MEL-JUSO; time = 258.52 h; result = 2.03e+07 a.u. and 1.69e+07 a.u. and 3.62e+07 a.u. and 1.96e+07 a.u. and 2.09e+07 a.u. and 2.34e+07 a.u.
cell line = NCI-H358; time = 168 h; result = 9.17e+06 a.u. and 5.98e+06 a.u. and 6.26e+06 a.u. and 7.06e+06 a.u. and 6.53e+06 a.u. and 7.78e+06 a.u.
cell line = PC-9; time = 120 h; result = 9.35e+08 a.u. and 9.07e+08 a.u. and 8.61e+08 a.u. and 8.67e+08 a.u. and 9.09e+08 a.u. and 8.96e+08 a.u.

Excerpt of the above (set 3):
SMILES = Cc1cccc(-c2[nH]c(C(C)(C)C)nc2-c2ccc3c(c2)OCO3)n1; result = 94.1%
SMILES = Cc1nc(-c2ccccc2)c(-c2ccncc2)o1; result = 94.7%
SMILES = O=C(CCCc1ccc(-c2ccccc2F)cc1)Nc1ccc(O)cc1; result = 91%
SMILES = O=c1c2ccccc2[nH]c(=S)n1CCN1CCC(=C(c2ccc(F)cc2)c2ccc(F)cc2)CC1; result = 109%
SMILES = COc1cc2nccc(Oc3ccc(NC(=S)NC(=O)c4ccccc4C)cc3)c2cc1OC; result = 102%
SMILES = COc1ccc(OC)c2c(=S)c3ccccc3[nH]c12; result = 87.7%
